Assay results pooled from the literature.
Each line is one published result; not all experiments were run side by side. Several values in a cell are separate wells, animals, samples, runs or records. ± marks the error that the study gave.
BCHE: Cholinesterase (BCHE, Equus caballus, UniProt P81908)
Chain of UniProt P81908 (whole entry, looked up): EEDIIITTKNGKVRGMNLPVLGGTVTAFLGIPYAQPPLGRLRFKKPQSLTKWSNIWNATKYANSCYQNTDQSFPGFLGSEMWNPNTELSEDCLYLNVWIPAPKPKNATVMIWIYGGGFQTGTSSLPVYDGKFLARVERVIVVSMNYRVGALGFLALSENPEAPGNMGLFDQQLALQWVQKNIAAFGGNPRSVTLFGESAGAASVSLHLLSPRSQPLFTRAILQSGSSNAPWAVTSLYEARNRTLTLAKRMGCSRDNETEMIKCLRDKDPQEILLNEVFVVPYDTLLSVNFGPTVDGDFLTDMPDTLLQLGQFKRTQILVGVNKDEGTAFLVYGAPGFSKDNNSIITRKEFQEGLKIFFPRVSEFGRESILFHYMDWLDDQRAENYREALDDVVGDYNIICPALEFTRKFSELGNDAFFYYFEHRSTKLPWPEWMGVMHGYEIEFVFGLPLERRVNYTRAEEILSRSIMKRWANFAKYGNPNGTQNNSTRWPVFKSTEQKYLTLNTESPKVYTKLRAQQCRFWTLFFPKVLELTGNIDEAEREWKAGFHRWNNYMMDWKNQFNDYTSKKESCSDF
Grin1: Glutamate receptor ionotropic, NMDA 1 (Grin1, Rattus norvegicus, UniProt P35439)
MAL12: Alpha-glucosidase MAL12 (MAL12, Saccharomyces cerevisiae S288c, UniProt P53341)
Chain of UniProt Q00535 (whole entry, looked up): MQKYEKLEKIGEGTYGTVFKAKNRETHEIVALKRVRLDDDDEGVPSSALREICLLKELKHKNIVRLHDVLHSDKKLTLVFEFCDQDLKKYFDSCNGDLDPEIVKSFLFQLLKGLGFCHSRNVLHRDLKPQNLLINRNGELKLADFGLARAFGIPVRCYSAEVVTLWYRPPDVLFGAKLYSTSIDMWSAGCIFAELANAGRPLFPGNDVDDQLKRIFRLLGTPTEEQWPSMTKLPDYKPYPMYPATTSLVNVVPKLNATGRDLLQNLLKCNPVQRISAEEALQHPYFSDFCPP
Chain of UniProt P53341 (whole entry, looked up): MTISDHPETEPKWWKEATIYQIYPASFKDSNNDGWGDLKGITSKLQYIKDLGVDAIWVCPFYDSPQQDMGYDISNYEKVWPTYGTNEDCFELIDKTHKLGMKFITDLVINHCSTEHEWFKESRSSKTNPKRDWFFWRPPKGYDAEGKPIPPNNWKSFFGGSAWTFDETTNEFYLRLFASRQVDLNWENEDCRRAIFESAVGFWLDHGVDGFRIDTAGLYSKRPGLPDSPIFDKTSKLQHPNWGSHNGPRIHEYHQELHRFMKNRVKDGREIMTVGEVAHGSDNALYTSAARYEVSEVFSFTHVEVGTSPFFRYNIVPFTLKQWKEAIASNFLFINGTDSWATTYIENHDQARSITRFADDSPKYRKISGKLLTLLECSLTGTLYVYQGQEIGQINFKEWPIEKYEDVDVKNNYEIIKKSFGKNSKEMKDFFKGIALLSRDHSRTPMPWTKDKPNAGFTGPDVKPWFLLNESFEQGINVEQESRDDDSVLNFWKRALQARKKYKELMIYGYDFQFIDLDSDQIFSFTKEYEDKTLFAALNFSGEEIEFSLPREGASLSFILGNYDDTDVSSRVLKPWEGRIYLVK
Chain of UniProt P97823 (whole entry, looked up): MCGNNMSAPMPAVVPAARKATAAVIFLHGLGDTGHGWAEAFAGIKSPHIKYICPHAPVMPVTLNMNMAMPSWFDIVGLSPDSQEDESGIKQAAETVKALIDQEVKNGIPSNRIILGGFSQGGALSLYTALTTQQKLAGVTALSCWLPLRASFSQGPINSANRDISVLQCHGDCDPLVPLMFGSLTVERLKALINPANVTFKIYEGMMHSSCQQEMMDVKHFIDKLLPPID
Chain of UniProt P12821 (whole entry, looked up): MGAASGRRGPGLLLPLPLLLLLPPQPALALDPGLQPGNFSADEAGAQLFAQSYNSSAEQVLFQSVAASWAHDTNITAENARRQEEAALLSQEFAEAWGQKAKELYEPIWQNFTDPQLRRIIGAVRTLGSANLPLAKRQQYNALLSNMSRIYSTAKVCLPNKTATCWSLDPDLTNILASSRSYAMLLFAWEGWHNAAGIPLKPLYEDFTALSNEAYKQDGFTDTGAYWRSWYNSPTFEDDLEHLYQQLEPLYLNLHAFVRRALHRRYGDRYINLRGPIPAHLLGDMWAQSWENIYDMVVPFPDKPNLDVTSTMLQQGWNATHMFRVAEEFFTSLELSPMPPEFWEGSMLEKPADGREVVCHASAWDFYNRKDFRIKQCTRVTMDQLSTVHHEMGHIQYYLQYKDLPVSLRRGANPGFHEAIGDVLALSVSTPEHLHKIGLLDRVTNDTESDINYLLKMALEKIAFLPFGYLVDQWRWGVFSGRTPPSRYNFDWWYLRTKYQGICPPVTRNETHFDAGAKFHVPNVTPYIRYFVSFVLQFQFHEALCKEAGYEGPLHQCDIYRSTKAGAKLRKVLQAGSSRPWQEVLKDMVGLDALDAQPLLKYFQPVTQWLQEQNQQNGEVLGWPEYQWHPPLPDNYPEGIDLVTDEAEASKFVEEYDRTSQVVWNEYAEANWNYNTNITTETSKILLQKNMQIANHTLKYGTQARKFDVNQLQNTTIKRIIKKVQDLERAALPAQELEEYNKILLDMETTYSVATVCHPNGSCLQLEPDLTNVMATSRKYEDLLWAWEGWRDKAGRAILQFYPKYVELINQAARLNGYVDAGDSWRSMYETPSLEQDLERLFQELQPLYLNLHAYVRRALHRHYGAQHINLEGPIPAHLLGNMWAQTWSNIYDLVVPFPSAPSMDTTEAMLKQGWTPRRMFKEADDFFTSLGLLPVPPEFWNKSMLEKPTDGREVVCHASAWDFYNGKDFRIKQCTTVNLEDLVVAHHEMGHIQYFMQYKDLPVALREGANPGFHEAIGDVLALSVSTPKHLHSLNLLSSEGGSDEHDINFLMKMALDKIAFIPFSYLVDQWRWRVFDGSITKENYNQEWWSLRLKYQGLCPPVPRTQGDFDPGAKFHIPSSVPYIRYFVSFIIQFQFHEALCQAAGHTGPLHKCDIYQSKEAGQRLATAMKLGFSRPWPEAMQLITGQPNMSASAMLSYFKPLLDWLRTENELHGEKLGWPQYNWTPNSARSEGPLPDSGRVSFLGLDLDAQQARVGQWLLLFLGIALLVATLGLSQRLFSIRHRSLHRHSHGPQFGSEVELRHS
Chain of UniProt P25021 (whole entry, looked up): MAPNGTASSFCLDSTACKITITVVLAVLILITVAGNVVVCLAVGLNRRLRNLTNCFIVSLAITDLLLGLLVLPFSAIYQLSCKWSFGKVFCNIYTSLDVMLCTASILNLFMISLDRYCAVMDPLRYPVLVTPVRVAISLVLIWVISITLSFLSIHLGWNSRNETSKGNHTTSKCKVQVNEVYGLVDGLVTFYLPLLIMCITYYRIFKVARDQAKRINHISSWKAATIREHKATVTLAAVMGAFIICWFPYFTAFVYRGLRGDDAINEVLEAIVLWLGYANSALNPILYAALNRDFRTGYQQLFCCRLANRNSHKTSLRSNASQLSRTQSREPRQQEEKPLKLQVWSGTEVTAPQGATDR
Chain of UniProt Q9HCP0 (whole entry, looked up): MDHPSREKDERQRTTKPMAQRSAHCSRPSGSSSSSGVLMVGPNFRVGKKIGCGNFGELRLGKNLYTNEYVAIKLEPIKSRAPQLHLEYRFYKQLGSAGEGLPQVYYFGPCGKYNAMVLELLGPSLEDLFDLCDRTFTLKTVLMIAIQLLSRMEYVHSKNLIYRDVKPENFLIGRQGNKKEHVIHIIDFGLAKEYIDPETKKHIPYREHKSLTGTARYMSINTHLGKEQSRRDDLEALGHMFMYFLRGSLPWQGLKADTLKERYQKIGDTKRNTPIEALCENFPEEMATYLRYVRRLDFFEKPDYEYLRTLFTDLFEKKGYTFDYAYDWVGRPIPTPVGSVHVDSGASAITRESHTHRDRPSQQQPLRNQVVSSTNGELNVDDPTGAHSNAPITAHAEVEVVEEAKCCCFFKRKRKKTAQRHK
Chain of UniProt P30411 (whole entry, looked up): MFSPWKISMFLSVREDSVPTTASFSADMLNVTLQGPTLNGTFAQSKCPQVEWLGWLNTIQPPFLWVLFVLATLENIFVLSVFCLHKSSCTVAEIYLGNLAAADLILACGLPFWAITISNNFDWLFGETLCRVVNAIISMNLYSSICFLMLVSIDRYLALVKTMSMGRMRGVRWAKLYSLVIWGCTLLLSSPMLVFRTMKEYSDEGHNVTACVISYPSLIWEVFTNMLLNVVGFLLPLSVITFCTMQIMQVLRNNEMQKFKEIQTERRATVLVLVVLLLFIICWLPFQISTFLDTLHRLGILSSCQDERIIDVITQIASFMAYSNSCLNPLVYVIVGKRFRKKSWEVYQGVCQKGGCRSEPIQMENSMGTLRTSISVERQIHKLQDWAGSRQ

| Compound | target | assay | system | conditions | inhibition |
| --- | --- | --- | --- | --- | --- |
| CS(C)(=O)=Nc1ccc(-c2ccc(-c3nc4cc(O[C@@H]5CO[C@H]6[C@@H]5OC[C@H]6O)[nH]c4cc3F)cc2)cc1 | Cyclin-dependent kinase 5, with p35 (CDK5, Homo sapiens, UniProt Q00535) | enzyme activity, inhibitor | – | 10 µM | 4% |
| COc1cc2c(cc1OC)CNCC2 | BCHE | enzyme activity, inhibitor, Ellman | – | 20 µM | 39.6% |
| Cc1ccc2c(n1)c(-c1cccc(S(C)(=O)=O)c1)c(C)n2C/C(F)=C/CN | Grin1 | radioligand binding | – | 10 µM, rat | -11% |
| CN(C)[C@H]1C[C@@]23CC[C@@]4(O2)C(=CC[C@]2(C)[C@@H](c5ccc6ccncc6c5)CC[C@H]24)C=C3[C@@H](O)[C@@H]1O | Cyclin-dependent kinase 5 (CDK5, Homo sapiens, UniProt Q00535) | ATP probe labelling, inhibitor, KiNativ profiling | – | 1 µM | 6.7% |
| CN(/N=C/c1ccccc1C(=O)O)c1nc(-c2ccccc2Cl)cs1 | LYN B kinase | kinase activity, inhibitor | – | 1 µM | 1.26% and 0.13% |
| CCc1nnc(-c2c(OC)cc(-c3cnc4cc(-c5cnn(C)c5)ccn34)cc2OC)o1 | Histamine H2 receptor (HRH2, Homo sapiens, UniProt P25021) | antagonist radioligand, radioligand binding | – | 10 µM, SafetyScreen44 H2 | -7% |
| C[C@H](NCc1ccc(-c2ccc(C(F)(F)F)cc2)cc1)C(N)=O | Phosphatidylinositol 4-phosphate 3-kinase C2 domain-containing subunit beta (PIK3C2B, Homo sapiens, UniProt O00750) | cell-free assay, competition with immobilised ligand | – | 1 µM | 2% |
| CC(=O)NC[C@@H]1[C@@H](O)C[C@H]2[C@H](O)C[C@@H](CO)N12 | Spodoptera litura β-N-acetylglucosaminidase | – | crude enzyme | 0.856 µM, run 2, with: p-nitrophenyl GlcNAc | 67.7% |
| CC(C)CC1NCCc2cc(O)c(O)cc21 (stereo not shown) | MAL12 | enzyme activity, inhibitor | – | 100 µM, DMSO solvent, with: pNPG substrate | 42.7 ± 2.2% |
| O=C(O)c1ccccc1/C=N/Nc1nc(-c2ccccc2Cl)cs1 | Misshapen-like kinase 1 (MINK1, Homo sapiens, UniProt Q8N4C8) | enzyme activity, inhibitor | – | 1 µM | 12.8% |
| O=[N+]([O-])c1cccc(Cn2cc(CCS(=O)(=O)F)nn2)c1 | BCHE | enzyme activity, inhibitor, Ellman | – | 20 µM | 38.1% |
| N[C@H](C(=O)N1CCCC1)C1CCN(c2nccc3c(-c4ncc(Cl)cc4Cl)cccc23)CC1 | Angiotensin-converting enzyme (ACE, Homo sapiens, UniProt P12821) | enzyme activity, inhibitor | – | 10 µM | 18% |
| COc1ccc(F)cc1S(=O)(=O)Nc1cnc2c(c1)C(=O)NCCO2 | B2 bradykinin receptor (BDKRB2, Homo sapiens, UniProt P30411) | ligand displacement, radioligand | – | 10 µM | -3% |
| O=C(CN1CN(c2ccccc2)C2(CCN(C(=O)c3cnc4[nH]ncc4c3)CC2)C1=O)NCC(F)(F)F | Casein kinase I isoform gamma-1 (CSNK1G1, Homo sapiens, UniProt Q9HCP0) | inhibitor | – | concentration not given | < 50% |
| N#Cc1ccc(N2N=C3c4ccc(C(=O)O)cc4CCC3C2C2CCCC2)cc1Cl (stereo not shown) | DNA (cytosine-5)-methyltransferase 3A, with DNMT3L (DNMT3A, Homo sapiens, UniProt Q9Y6K1) | enzyme activity | – | 10 µM | 3% |
| N#CCc1ccc(O)cc1 | MAL12 | inhibitor | – | 100 µg/mL, 0.4167 h, with: p-nitrophenyl glucoside substrate | 42.7 ± 3.47% |
| CN[C@@H]1[C@H](O)[C@H](NC)[C@H]2O[C@]3(O)[C@H](O[C@@H]2[C@H]1O)O[C@H](C)C[C@H]3NC(=O)Cc1cc(Cl)ccn1 | Grin1 | – | – | 10 µM | 10% |
| CC(C)[C@H]1NC(=O)C[C@H]2/C=C/CCSSC[C@@H](NC1=O)C(=O)N[C@H](Cc1cccc3ccccc13)C(=O)NCC(=O)O2 | Cyclin-dependent kinase 5, with p25 (CDK5, Homo sapiens, UniProt Q00535) | enzyme activity, inhibitor | – | 10 µM | -2.5% |
| O=C(N1CCCCC1)n1ccnn1 | Acyl-protein thioesterase 1 (Lypla1, Mus musculus, UniProt P97823) | serine hydrolase activity, inhibitor, competitive gel-based ABPP | mouse T-cell proteome | 1 µM, 30 min, 37 °C | < 50% |

Repeated from above:
| Compound | target | assay | system | conditions | inhibition |
| --- | --- | --- | --- | --- | --- |
| COc1ccc(F)cc1S(=O)(=O)Nc1cnc2c(c1)C(=O)NCCO2 | B2 bradykinin receptor (BDKRB2, Homo sapiens, UniProt P30411) | ligand displacement, radioligand | – | 10 µM | -3% |
| O=C(CN1CN(c2ccccc2)C2(CCN(C(=O)c3cnc4[nH]ncc4c3)CC2)C1=O)NCC(F)(F)F | Casein kinase I isoform gamma-1 (CSNK1G1, Homo sapiens, UniProt Q9HCP0) | inhibitor | – | concentration not given | < 50% |
